{"data": "Measurements collected from several papers", "note": "A part holds a random share of what one study measured. “And” joins repeats or separate records; there may be more than shown.", "chain of UniProt O60285 (whole entry, looked up)": "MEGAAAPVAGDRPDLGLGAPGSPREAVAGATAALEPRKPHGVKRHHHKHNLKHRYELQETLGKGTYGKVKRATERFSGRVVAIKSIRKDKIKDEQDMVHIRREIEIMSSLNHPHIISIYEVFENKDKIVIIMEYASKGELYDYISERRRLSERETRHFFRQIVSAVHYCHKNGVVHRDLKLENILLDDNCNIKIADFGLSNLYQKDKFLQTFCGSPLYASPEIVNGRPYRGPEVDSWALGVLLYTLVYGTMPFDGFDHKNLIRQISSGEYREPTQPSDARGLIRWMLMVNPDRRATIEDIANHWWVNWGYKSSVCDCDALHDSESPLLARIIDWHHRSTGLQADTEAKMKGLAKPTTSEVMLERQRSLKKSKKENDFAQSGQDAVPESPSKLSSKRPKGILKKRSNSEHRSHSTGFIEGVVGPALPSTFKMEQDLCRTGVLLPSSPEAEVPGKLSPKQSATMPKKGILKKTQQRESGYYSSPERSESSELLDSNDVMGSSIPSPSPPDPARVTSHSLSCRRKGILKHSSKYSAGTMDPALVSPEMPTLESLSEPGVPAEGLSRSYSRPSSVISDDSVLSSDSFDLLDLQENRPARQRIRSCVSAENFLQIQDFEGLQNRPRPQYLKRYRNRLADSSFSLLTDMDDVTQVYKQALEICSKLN", "chain of UniProt P36897 (whole entry, looked up)": "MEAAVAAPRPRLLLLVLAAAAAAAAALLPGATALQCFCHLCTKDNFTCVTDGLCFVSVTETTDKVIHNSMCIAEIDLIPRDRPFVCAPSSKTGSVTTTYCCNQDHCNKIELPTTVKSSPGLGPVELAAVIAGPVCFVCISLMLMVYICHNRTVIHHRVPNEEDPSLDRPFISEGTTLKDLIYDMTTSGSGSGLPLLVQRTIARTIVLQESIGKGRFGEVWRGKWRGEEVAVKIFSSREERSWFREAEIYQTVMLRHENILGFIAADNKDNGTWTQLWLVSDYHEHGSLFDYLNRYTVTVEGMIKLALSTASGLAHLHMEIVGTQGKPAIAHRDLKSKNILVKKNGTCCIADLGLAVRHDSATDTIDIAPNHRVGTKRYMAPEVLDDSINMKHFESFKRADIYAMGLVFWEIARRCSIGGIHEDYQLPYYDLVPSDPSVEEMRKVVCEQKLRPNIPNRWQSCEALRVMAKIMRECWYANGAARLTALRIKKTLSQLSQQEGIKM", "chain of UniProt Q8IU85 (whole entry, looked up)": "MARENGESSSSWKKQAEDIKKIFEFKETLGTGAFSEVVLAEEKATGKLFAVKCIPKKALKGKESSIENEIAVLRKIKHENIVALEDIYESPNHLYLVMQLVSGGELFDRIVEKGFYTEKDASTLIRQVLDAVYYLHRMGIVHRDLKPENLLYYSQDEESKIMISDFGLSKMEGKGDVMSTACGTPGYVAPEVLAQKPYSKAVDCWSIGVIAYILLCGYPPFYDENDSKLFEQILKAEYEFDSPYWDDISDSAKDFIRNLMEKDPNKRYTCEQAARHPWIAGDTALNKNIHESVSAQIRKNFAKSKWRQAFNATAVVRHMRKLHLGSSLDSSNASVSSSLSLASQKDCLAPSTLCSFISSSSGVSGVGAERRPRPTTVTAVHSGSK"}
{"data": "Series 1", "target": "DNA polymerase theta, helicase domain (POLQ, Homo sapiens, UniProt O75417)", "action": "inhibitor", "concentration": "concentration not given", "with": "with ssDNA", "chain of UniProt O75417 (whole entry, looked up)": "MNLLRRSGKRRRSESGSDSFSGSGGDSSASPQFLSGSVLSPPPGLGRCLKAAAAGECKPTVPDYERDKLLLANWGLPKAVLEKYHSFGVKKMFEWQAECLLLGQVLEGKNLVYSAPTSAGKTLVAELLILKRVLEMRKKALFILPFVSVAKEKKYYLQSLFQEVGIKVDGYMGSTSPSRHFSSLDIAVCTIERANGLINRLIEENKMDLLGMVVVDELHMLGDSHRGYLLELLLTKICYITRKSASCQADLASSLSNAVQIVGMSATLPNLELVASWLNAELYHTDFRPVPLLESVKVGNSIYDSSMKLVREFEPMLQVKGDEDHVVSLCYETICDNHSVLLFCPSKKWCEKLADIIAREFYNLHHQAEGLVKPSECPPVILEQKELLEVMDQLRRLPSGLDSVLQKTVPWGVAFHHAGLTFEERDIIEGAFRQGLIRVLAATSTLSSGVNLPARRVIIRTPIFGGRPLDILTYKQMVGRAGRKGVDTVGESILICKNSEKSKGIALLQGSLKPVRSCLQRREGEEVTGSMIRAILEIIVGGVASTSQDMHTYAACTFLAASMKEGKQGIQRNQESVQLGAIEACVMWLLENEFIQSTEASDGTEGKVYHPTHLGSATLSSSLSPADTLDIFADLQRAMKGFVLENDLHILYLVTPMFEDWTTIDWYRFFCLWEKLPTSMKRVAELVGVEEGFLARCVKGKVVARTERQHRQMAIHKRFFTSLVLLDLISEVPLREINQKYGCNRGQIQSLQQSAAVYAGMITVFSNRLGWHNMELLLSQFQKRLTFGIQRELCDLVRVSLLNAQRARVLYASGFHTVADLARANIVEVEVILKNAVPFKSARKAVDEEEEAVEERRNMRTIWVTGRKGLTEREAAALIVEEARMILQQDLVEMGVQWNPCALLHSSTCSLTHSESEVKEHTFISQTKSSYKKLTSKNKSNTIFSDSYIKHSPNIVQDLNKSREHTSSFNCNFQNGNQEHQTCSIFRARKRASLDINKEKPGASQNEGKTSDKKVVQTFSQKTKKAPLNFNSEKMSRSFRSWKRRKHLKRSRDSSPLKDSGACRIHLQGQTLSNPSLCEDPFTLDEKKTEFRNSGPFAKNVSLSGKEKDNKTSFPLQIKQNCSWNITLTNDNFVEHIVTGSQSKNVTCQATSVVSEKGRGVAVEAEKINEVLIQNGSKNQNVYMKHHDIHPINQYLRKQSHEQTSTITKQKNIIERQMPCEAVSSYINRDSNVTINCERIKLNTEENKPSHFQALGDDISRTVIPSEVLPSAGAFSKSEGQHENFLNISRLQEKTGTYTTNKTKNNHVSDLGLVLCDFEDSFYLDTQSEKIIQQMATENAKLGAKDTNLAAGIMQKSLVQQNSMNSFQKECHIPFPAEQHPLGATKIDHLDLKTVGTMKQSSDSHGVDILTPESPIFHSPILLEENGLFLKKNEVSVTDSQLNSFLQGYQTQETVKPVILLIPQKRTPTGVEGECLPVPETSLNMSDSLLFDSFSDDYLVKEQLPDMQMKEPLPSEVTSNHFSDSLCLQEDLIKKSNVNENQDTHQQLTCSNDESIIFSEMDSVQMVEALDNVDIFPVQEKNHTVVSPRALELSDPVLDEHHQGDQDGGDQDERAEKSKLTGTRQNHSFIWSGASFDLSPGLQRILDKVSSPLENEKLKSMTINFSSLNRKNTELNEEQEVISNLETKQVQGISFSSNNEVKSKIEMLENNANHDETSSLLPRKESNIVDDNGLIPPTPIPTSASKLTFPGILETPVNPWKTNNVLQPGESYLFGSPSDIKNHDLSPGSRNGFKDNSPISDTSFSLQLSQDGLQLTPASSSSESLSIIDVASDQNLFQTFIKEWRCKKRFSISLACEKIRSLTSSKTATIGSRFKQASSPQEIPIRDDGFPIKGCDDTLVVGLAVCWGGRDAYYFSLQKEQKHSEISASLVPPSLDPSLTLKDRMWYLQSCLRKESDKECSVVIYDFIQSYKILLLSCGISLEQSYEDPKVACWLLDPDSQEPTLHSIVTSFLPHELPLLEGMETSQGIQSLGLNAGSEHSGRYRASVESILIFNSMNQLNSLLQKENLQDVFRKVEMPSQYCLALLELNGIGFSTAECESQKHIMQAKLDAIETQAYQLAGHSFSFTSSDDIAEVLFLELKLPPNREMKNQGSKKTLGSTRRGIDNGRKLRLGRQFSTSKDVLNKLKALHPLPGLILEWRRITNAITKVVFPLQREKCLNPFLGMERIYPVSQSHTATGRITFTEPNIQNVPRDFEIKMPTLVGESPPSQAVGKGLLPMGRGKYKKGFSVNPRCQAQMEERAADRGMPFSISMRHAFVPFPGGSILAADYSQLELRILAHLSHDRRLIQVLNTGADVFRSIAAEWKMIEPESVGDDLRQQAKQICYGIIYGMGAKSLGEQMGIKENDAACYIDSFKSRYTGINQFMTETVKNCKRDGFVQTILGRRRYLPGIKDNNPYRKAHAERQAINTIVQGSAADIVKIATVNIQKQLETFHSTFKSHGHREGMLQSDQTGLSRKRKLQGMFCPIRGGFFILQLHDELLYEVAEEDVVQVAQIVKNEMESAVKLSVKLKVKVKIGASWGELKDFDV"}
{"Structure (SMILES)": "COc1cccc2c1C(=O)c1c(O)c3c(c(O)c1C2=O)C[C@@](O)(C(=O)CO)C[C@@H]3O[C@H]1C[C@H](N)[C@@H](O)[C@H](C)O1", "remaining activity": "45.4% and 47.7%"}
{"Structure (SMILES)": "O=C(CSc1ncc(S(=O)(=O)c2ccc(Br)cc2)c(=O)[nH]1)NCc1ccc(Cl)cc1", "remaining activity": "54.3% and 58.3%"}
{"Structure (SMILES)": "CC(=O)Oc1ccccc1C(=O)Nc1ncc([N+](=O)[O-])s1", "remaining activity": "46.3% and 47.3%"}
{"Structure (SMILES)": "O=C(O)/C(=C/c1c(C(=O)O)[nH]c2cc(Cl)cc(Cl)c12)c1ccccc1", "remaining activity": "108% and 106%"}
{"Structure (SMILES)": "O=c1[nH]c2cc(Cl)ccc2c(O)c1-c1cccc(Oc2ccccc2)c1", "remaining activity": "74% and 72.3%"}
{"Structure (SMILES)": "CCOc1ccccc1NC(=O)CSc1ncc(S(=O)(=O)c2ccc(C(C)(C)C)cc2)c(=O)[nH]1", "remaining activity": "68.5% and 70.9%"}
{"Structure (SMILES)": "CCc1ccc(/C=C2/SC(=S)NC2=O)cc1", "remaining activity": "44.9% and 48.3%"}
{"Structure (SMILES)": "CCC(C)(Oc1ccc(C2(c3ccc(OC(C)(CC)C(=O)O)cc3)CCCCC2)cc1)C(=O)O (stereo not shown)", "remaining activity": "68.7% and 63.7%"}
{"Structure (SMILES)": "Cc1ccc(NC(=O)CSc2ncc(S(=O)(=O)c3ccc(C(C)C)cc3)c(=O)[nH]2)cc1C", "remaining activity": "74.9% and 79.7%"}
{"data": "Series 2", "SMILES": "O=C1NC(=O)c2c1c1c3ccccc3[nH]c1n1cncc21", "observed": "enzyme activity", "action": "inhibitor", "concentration": "0.5 µM", "reference": "control"}
{"target": "BMX (Homo sapiens, UniProt P51813)", "remaining activity [%]": 91.7}
{"target": "PIM2 (Homo sapiens, UniProt Q9P1W9)", "remaining activity [%]": 34.4}
{"target": "GRK6 (Homo sapiens, UniProt P43250)", "remaining activity [%]": 82.1}
{"target": "CSF1R (Homo sapiens, UniProt P07333)", "remaining activity [%]": 64.9}
{"target": "FGFR4 (Homo sapiens, UniProt P22455)", "remaining activity [%]": 78.6}
{"target": "FLT3 (Homo sapiens, UniProt P36888)", "remaining activity [%]": 9.86}
{"target": "Aurora kinase C (AURKC, Homo sapiens, UniProt Q9UQB9)", "remaining activity [%]": 47.6}
{"target": "GRK2 (Homo sapiens, UniProt P25098)", "remaining activity [%]": 107}
{"target": "SGK1 (Homo sapiens, UniProt O00141)", "remaining activity [%]": 69}
{"target": "CSK (Homo sapiens, UniProt P41240)", "remaining activity [%]": 83.3}
{"target": "RPS6KA1 (Homo sapiens, UniProt Q15418)", "remaining activity [%]": 31.1}
{"target": "PRKCG (Homo sapiens, UniProt P05129)", "remaining activity [%]": 117}
{"target": "RPS6KB1 (Homo sapiens, UniProt P23443)", "remaining activity [%]": 70.6}
{"target": "PRKCE (Homo sapiens, UniProt Q02156)", "remaining activity [%]": 84.9}
{"target": "NUAK1 (Homo sapiens, UniProt O60285)", "remaining activity [%]": 12.1}
{"target": "EPHB2 (Homo sapiens, UniProt P29323)", "remaining activity [%]": 86.1}
{"target": "GSK3A (Homo sapiens, UniProt P49840)", "remaining activity [%]": 10.4}
{"target": "MYLK (Homo sapiens, UniProt Q15746)", "remaining activity [%]": 15.5}
{"target": "SRPK3 (Homo sapiens, UniProt Q9UPE1)", "remaining activity [%]": 75.7}
{"target": "PAK2 (Homo sapiens, UniProt Q13177)", "remaining activity [%]": 99}
{"target": "EPHA7 (Homo sapiens, UniProt Q15375)", "remaining activity [%]": 78.8}
{"data": "Series 3", "Structure (SMILES)": "C=CCc1ccc(O)c(-c2ccc(O)c(CC=C)c2)c1", "observed": "chloride current", "ANO1 del476-501": "Anoctamin-1 (ANO1, Homo sapiens, UniProt Q5XXA6, del476-501)", "ANO1 del476-501/F628A": "Anoctamin-1 (ANO1, Homo sapiens, UniProt Q5XXA6, del476-501/F628A)", "chain of UniProt Q5XXA6 (whole entry, unmodified, looked up)": "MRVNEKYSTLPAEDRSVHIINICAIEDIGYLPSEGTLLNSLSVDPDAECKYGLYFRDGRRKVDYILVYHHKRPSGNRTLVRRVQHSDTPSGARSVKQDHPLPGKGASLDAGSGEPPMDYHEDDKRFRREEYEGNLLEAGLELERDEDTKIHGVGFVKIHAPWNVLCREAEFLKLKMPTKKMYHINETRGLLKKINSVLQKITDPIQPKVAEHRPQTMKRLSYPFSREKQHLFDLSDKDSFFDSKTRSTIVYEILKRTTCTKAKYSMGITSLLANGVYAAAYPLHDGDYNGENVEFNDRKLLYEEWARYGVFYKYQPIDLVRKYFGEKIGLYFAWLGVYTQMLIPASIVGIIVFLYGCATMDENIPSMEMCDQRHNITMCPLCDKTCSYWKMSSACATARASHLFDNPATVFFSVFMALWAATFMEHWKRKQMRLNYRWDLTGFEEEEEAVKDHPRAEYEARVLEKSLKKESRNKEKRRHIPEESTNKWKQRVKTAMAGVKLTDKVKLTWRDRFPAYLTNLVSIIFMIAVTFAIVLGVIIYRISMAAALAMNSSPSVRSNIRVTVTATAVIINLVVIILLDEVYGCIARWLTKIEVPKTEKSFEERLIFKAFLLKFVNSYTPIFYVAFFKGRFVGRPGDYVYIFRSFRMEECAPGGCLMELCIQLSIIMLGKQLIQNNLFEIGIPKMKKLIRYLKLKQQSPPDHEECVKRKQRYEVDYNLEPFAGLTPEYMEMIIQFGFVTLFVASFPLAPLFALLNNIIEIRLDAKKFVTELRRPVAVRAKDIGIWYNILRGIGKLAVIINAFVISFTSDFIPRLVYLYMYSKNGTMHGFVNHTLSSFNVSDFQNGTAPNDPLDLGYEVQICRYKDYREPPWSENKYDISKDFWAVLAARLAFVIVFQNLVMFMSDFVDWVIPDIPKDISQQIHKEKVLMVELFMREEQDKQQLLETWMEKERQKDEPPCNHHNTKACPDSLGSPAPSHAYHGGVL"}
{"target": "ANO1 del476-501", "method": "whole-cell voltage clamp", "concentration": "30 µM", "setting": "wild type, I-V at 0 mV", "with": "4 µM Ca2+", "normalized current": -0.00016}
{"target": "ANO1 del476-501", "method": "whole-cell voltage clamp", "concentration": "30 µM", "setting": "wild type, I-V at -100 mV", "with": "4 µM Ca2+", "normalized current": -0.0554}
{"target": "ANO1 del476-501", "method": "whole-cell voltage clamp", "concentration": "3 µM", "setting": "wild type, concentration-response at 40 mV", "with": "4 µM Ca2+", "normalized current": 0.298}
{"target": "ANO1 del476-501/F628A", "method": "whole-cell voltage clamp", "concentration": "100 µM", "setting": "I-V at -20 mV", "with": "4 µM Ca2+", "normalized current": -0.0419}
{"target": "ANO1 del476-501", "method": "whole-cell voltage clamp", "concentration": "30 µM", "setting": "wild type, concentration-response at -40 mV", "with": "4 µM Ca2+", "normalized current": -0.0264}
{"target": "ANO1 del476-501", "method": "whole-cell voltage clamp", "concentration": "1 µM", "setting": "wild type, I-V at -60 mV", "with": "4 µM Ca2+", "normalized current": -0.523}
{"target": "ANO1 del476-501", "method": "whole-cell voltage clamp", "concentration": "10 µM", "setting": "wild type, I-V at -20 mV", "with": "4 µM Ca2+", "normalized current": -0.0561}
{"target": "ANO1 del476-501/F628A", "method": "whole-cell voltage clamp", "concentration": "1 µM", "setting": "I-V at -60 mV", "with": "4 µM Ca2+", "normalized current": -0.46}
{"target": "Anoctamin-1 (ANO1, Homo sapiens, UniProt Q5XXA6, del476-501/K629A)", "method": "inside-out patch clamp", "concentration": "10 µM", "setting": "membrane voltage 0 mV", "normalized current": -0.0009}
{"target": "ANO1 del476-501/F628A", "method": "whole-cell voltage clamp", "concentration": "30 µM", "setting": "I-V at -60 mV", "with": "4 µM Ca2+", "normalized current": -0.24}
{"target": "Anoctamin-1 (ANO1, Homo sapiens, UniProt Q5XXA6, del476-501/E649A/R541A)", "method": "inside-out patch clamp", "concentration": "10 µM", "setting": "membrane voltage -40 mV", "normalized current": -0.173}
{"target": "ANO1 del476-501", "method": "whole-cell voltage clamp", "concentration": "30 µM", "setting": "wild type, I-V at -80 mV", "with": "4 µM Ca2+", "normalized current": -0.053}
{"target": "ANO1 del476-501", "method": "whole-cell voltage clamp", "concentration": "30 µM", "setting": "wild type, concentration-response at -100 mV", "with": "4 µM Ca2+", "normalized current": -0.0524}
{"data": "Series 4", "SMILES": "COc1ccc2c(O[C@@H]3C[C@H]4C(=O)N[C@]5(C(=O)O)CC5/C=C\\CCCCC[C@H](NC(=O)OC5CCCC5)C(=O)N4C3)cc(-c3csc(NC(=O)C(C)C)n3)nc2c1C (stereo partly shown)", "observed": "cell-free assay", "method": "competition with immobilised ligand", "concentration": "1 µM"}
{"target": "CHEK2 (Homo sapiens, UniProt O96017)", "remaining binding [%]": 94}
{"target": "CAMK1D (Homo sapiens, UniProt Q8IU85)", "remaining binding [%]": 100}
{"target": "EPHA4 (Homo sapiens, UniProt P54764)", "remaining binding [%]": 100}
{"target": "PIP5K1C (Homo sapiens, UniProt O60331)", "remaining binding [%]": 100}
{"target": "NTRK3 (Homo sapiens, UniProt Q16288)", "remaining binding [%]": 97}
{"target": "Insulin receptor (INSR, Homo sapiens, UniProt P06213)", "remaining binding [%]": 94}
{"target": "TGFBR1 (Homo sapiens, UniProt P36897)", "remaining binding [%]": 100}
{"target": "RIOK1 (Homo sapiens, UniProt Q9BRS2)", "remaining binding [%]": 93}
{"target": "PRKAA1 (Homo sapiens, UniProt Q13131)", "remaining binding [%]": 100}
{"target": "LRRK2 (Homo sapiens, UniProt Q5S007)", "remaining binding [%]": 92}
{"target": "EIF2AK1 (Homo sapiens, UniProt Q9BQI3)", "remaining binding [%]": 96}
{"target": "MAPK1 (Homo sapiens, UniProt P28482)", "remaining binding [%]": 89}
{"target": "ULK2 (Homo sapiens, UniProt Q8IYT8)", "remaining binding [%]": 95}
{"target": "MUSK (Homo sapiens, UniProt O15146)", "remaining binding [%]": 91}
{"target": "NUAK1 (Homo sapiens, UniProt O60285)", "remaining binding [%]": 92}
{"note": "A few entries again (series 1):"}
{"Structure (SMILES)": "CCc1ccc(/C=C2/SC(=S)NC2=O)cc1", "remaining activity": "44.9% and 48.3%"}
{"Structure (SMILES)": "O=C(CSc1ncc(S(=O)(=O)c2ccc(Br)cc2)c(=O)[nH]1)NCc1ccc(Cl)cc1", "remaining activity": "54.3% and 58.3%"}
{"Structure (SMILES)": "Cc1ccc(NC(=O)CSc2ncc(S(=O)(=O)c3ccc(C(C)C)cc3)c(=O)[nH]2)cc1C", "remaining activity": "74.9% and 79.7%"}
{"Structure (SMILES)": "CCOc1ccccc1NC(=O)CSc1ncc(S(=O)(=O)c2ccc(C(C)(C)C)cc2)c(=O)[nH]1", "remaining activity": "68.5% and 70.9%"}
{"Structure (SMILES)": "O=c1[nH]c2cc(Cl)ccc2c(O)c1-c1cccc(Oc2ccccc2)c1", "remaining activity": "74% and 72.3%"}
{"Structure (SMILES)": "COc1cccc2c1C(=O)c1c(O)c3c(c(O)c1C2=O)C[C@@](O)(C(=O)CO)C[C@@H]3O[C@H]1C[C@H](N)[C@@H](O)[C@H](C)O1", "remaining activity": "45.4% and 47.7%"}
{"Structure (SMILES)": "O=C(O)/C(=C/c1c(C(=O)O)[nH]c2cc(Cl)cc(Cl)c12)c1ccccc1", "remaining activity": "108% and 106%"}
{"Structure (SMILES)": "CCC(C)(Oc1ccc(C2(c3ccc(OC(C)(CC)C(=O)O)cc3)CCCCC2)cc1)C(=O)O (stereo not shown)", "remaining activity": "68.7% and 63.7%"}
{"Structure (SMILES)": "CC(=O)Oc1ccccc1C(=O)Nc1ncc([N+](=O)[O-])s1", "remaining activity": "46.3% and 47.3%"}
